Experimental data pooled from the literature.
Protocols differ between the studies behind these lines.

`C=CC(=O)Nc1cccc(Cn2ncc3cnc(Nc4cnn(CCOC)c4)nc32)c1` — result for “percent of control”: 70% (CSNK2A1 human; binding, KINOMEscan; 100 nM; lower = stronger binding).
With `C=C(NC(=O)c1csc(-c2nc3c(cc2O)-c2nc(cs2)C(=O)NC(C(C)O)C(=O)NC(=C(C)OC)c2nc(cs2)C(=O)NC2c4nc(cs4)C(=O)NC(COC(=O)c4c5c6c(cccc6n4O)COC(=O)C(OC4CC(C)(O)C(N(C)C)C(C)O4)C2OC5)c2nc-3cs2)n1)C(N)=O` (centres unmarked) the ED50 was 0.64 mg/kg (Staphylococcus; MRSA-38, mouse systemic infection; intravenous; survival).
`CC(C)c1ccc(N(C)c2ccc3c(c2)OCC[C@H]3CNc2cnccc2C(=O)O)cc1` has an IC50 of 6.23 nM (TOV112D; cell growth or viability, ATP luminescence; 7 days).
The fold regulation of `CCN(CC)CC(=O)Nc1cccc(-n2cc(-c3ccc4ccc(-c5cn(-c6cccc(NC(=O)CN(CC)CC)c6)nn5)cc4c3)nn2)c1` is reported as -1.02 (RCC4; PCR angiogenesis array, item: HPSE; 5 x IC50, 2 h, normoxia; baseline: untreated).
Under “log2 fold change”, `COC1CN([C@H]2CC[C@H]([C@@]3(C)Oc4c(Cl)cc(C(=O)NCc5c(SC)cc(C)[nH]c5=O)c(C)c4O3)CC2)C1` is recorded as 2.26 (RNA-seq, item: FAM131B; human, whole blood; dose not given, 24 h; baseline: pretreatment baseline).
The relative translation of `COc1ccccc1/C=C/CN1CCCC(CCC(=O)NCc2ccccc2F)C1` (centres unmarked) is reported as 106% (Trypanosoma cruzi; reporter mRNA translation, inhibitor, item: capped polyadenylated Renilla luciferase mRNA; cell-free extract; concentration not given; baseline: control RNA).
`Cn1ncc2cc(-c3cncc(Cl)c3N3CCC4(CCNC4=O)CC3)ccc21` — result for “log2 fold change”: 1.22 (LS174T; gene expression, microarray, item: RUNX1 mRNA; concentration not given, 4 h; baseline: untreated cells).
`CNS(=O)(=O)Nc1nccc(Cc2c(C)c3ccc(Oc4ncccc4F)cc3oc2=O)c1F` has an IC50 of greater than 1000 nM (NCI-H2171; cell viability; 7 days).
`CCOc1cncc(-c2ccc(NC(=O)C3(c4ccnc(NS(=O)(=O)C5CC5)n4)CCOCC3)nc2)n1` has an IC50 of 6 nM (Kasumi 1; cell proliferation, CellTiter-Glo; 72 h).
For `Nc1ncc(-c2cc(-c3cnn(CC(F)(F)F)c3)ncc2F)nc1C(=O)NC1CNCC(F)C1` (centres unmarked), the remaining binding was 64% (GRK7; KINOMEscan; 1 µM; baseline: DMSO control).
Under “pseudo-first-order rate constant”, `O=Cc1cc(C(F)(F)F)ccc1B(O)O` is recorded as 0 h⁻¹ (reaction with N-acetyl-lysine, HPLC-MS; pH 10.2, together with: N-α-acetyl-lysine).
`COc1ccc(CCN(C)CCCC(C#N)(c2ccc(OC)c(OC)c2)C(C)C)cc1OC` (centres unmarked) has a relative translation of 97.3% (Trypanosoma cruzi; reporter mRNA translation, inhibitor, item: capped polyadenylated Renilla luciferase mRNA; cell-free extract; concentration not given; baseline: control RNA).
Under “log2 fold change”, `Cc1ncsc1-c1ccc(C(C)NC(=O)C2CC(O)CN2C(=O)C(NC(=O)CCCCCCCCCCN2CCCC(Nc3ncc(Cl)c(Nc4ccccc4S(=O)(=O)C(C)C)n3)C2)C(C)(C)C)cc1` (centres unmarked) is recorded as -2.26 (22Rv1; RNA-seq, item: PTPDC1 mRNA; concentration not given; baseline: DMSO).
`CN1CCCNC(=O)c2cccc(c2)C(=O)NCCCN(C)CCCNc2cccc3c2C(=O)c2cccc(c2C3=O)NCCC1`: “log2 fold change” 0.555 (SAS; RNA-Seq, item: UQCC1 mRNA; 1 µM, 6 h; baseline: untreated cells).

A few entries again:
Under “log2 fold change”, `COC1CN([C@H]2CC[C@H]([C@@]3(C)Oc4c(Cl)cc(C(=O)NCc5c(SC)cc(C)[nH]c5=O)c(C)c4O3)CC2)C1` is recorded as 2.26 (RNA-seq, item: FAM131B; human, whole blood; dose not given, 24 h; baseline: pretreatment baseline).
The relative translation of `COc1ccccc1/C=C/CN1CCCC(CCC(=O)NCc2ccccc2F)C1` (centres unmarked) is reported as 106% (Trypanosoma cruzi; reporter mRNA translation, inhibitor, item: capped polyadenylated Renilla luciferase mRNA; cell-free extract; concentration not given; baseline: control RNA).
